Results collected from several papers.
Compare with care: the assays were run in different laboratories. “And” joins repeats or separate records; there may be more than shown. ± marks the error that the study gave.
IRF2BP2: IRF2BP2 fragment (Homo sapiens)
HCRTR2 del254-292/I293E/K294R/L160H/M161K/Q254E: Orexin receptor type 2 (HCRTR2, Homo sapiens, UniProt O43614, del254-292/I293E/K294R/L160H/M161K/Q254E)
UniProt O43614, sequence (whole entry, unmodified, looked up): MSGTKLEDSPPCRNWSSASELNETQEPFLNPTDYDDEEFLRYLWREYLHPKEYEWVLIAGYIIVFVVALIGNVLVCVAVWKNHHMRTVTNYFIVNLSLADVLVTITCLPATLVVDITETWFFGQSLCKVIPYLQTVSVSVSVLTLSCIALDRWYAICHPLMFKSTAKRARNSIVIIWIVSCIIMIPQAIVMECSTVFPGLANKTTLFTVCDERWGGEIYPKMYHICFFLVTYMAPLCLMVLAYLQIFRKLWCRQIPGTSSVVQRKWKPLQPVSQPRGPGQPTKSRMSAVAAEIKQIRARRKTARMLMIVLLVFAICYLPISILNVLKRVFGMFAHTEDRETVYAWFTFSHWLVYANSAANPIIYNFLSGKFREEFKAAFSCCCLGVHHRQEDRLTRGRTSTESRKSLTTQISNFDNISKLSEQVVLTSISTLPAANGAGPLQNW
KEAP1: KEAP1 321-609 (Homo sapiens, UniProt Q14145)
UniProt Q14145, sequence (whole entry, looked up): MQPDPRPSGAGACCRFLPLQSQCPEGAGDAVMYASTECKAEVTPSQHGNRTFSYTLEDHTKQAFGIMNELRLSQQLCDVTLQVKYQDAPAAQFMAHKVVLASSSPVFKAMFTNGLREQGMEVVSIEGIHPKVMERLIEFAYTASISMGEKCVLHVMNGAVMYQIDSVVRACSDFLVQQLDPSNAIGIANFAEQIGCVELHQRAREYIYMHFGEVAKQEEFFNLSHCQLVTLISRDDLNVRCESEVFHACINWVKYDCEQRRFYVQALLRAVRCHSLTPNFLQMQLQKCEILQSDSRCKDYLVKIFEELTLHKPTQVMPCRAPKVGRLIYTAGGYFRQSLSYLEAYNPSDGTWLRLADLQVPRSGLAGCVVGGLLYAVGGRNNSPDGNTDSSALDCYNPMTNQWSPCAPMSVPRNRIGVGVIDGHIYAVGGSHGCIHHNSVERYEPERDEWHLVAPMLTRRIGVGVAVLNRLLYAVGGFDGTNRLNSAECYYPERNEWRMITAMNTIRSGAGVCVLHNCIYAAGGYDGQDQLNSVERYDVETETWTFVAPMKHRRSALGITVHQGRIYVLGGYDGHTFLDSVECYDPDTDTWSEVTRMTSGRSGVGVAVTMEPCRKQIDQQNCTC
PCNA: PCNA (Homo sapiens, UniProt P12004)
UniProt P12004, sequence (whole entry, looked up): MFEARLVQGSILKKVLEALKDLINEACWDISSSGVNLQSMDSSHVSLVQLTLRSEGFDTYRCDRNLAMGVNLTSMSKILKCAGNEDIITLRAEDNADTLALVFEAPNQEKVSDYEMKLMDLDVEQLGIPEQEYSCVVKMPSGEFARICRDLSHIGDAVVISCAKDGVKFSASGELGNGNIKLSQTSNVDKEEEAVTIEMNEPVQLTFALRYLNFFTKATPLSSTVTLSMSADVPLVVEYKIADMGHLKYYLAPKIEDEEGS
Mcl1 152-308: Mcl1 152-308 (Mus musculus, UniProt P97287)
UniProt P97287, sequence (whole entry, looked up): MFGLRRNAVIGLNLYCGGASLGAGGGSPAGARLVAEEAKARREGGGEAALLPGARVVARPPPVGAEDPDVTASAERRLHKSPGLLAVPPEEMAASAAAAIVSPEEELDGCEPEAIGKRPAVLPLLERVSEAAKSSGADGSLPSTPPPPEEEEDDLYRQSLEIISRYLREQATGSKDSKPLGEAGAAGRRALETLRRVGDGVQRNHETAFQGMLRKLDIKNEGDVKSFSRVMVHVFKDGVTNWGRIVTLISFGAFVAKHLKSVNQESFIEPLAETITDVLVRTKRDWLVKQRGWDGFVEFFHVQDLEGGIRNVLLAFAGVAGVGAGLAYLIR
Crebbp: Crebbp 340-439 (Mus musculus, UniProt P45481)
UniProt Q13283, sequence (whole entry, looked up): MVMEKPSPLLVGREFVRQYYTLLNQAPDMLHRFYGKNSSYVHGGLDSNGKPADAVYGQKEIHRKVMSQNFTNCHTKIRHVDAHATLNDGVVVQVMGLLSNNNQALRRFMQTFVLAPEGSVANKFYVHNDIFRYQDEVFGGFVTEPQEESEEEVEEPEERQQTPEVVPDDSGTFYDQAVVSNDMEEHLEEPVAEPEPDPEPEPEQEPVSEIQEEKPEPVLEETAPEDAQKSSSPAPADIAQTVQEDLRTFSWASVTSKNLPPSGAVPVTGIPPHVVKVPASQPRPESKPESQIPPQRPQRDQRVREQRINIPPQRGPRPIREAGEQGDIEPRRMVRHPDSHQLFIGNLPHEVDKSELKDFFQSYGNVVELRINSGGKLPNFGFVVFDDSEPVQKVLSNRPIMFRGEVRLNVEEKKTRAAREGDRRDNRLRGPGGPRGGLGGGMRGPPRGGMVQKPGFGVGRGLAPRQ
UniProt P45481, sequence (whole entry, looked up): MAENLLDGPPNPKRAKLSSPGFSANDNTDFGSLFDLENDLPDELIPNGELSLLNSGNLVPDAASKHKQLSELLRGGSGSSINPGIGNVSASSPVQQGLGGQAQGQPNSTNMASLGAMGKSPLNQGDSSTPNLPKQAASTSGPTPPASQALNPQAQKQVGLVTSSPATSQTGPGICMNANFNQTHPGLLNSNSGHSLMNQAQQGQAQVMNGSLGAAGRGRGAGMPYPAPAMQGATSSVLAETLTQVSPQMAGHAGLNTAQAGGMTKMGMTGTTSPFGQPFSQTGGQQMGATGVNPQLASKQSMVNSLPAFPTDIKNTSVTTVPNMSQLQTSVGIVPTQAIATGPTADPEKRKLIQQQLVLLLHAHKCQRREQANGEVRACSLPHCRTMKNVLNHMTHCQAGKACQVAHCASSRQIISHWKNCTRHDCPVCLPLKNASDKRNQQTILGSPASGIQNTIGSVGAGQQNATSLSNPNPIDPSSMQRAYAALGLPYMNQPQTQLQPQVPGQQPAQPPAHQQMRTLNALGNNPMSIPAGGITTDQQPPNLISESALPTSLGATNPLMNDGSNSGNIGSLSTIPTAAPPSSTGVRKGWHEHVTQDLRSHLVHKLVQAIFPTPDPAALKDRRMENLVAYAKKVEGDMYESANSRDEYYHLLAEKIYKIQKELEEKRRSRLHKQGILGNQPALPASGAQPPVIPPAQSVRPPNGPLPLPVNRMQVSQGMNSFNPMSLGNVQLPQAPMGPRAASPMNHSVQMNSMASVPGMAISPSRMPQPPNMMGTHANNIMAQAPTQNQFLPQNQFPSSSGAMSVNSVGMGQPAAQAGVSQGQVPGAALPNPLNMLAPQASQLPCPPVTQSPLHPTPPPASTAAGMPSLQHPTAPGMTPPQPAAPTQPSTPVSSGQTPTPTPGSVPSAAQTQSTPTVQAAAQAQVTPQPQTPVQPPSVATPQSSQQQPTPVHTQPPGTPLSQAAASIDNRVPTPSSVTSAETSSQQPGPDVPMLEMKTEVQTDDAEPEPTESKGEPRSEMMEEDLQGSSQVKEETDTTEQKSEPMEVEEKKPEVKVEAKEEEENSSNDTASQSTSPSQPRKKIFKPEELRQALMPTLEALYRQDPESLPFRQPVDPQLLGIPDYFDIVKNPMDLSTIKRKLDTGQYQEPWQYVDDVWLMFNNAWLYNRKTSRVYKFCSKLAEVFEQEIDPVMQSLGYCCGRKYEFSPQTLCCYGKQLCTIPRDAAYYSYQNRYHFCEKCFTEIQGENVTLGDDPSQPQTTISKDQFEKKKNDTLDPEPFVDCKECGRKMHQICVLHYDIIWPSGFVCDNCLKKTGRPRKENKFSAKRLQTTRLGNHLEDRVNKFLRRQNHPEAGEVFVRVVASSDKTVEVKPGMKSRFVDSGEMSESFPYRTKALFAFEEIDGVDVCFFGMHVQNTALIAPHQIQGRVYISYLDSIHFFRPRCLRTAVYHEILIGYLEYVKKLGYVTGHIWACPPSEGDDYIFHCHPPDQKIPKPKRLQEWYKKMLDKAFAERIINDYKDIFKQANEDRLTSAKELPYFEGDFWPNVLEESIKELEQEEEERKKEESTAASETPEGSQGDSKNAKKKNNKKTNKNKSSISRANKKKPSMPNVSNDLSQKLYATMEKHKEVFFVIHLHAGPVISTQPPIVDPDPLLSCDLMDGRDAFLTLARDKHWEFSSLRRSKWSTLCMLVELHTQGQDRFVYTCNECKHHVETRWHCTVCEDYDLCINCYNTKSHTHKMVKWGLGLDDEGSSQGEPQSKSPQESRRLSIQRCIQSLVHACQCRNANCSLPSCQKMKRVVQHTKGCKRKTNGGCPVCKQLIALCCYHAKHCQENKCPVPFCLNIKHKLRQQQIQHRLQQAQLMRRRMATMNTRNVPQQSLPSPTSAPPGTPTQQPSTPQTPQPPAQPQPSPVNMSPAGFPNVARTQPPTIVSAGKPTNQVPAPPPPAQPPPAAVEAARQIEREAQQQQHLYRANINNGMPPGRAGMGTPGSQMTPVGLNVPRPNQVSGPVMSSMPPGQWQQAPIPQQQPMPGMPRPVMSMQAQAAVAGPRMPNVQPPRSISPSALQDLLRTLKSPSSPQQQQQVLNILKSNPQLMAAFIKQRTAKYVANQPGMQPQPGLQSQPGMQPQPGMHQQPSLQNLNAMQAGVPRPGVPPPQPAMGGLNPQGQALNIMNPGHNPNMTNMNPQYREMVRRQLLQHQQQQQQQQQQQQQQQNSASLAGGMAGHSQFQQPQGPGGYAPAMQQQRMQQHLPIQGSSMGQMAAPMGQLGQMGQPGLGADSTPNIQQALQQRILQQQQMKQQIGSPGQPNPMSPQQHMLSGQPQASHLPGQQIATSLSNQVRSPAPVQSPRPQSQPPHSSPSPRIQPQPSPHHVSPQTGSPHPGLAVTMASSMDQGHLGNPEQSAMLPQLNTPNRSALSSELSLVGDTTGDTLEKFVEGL
UniProt O95619, sequence (whole entry, looked up): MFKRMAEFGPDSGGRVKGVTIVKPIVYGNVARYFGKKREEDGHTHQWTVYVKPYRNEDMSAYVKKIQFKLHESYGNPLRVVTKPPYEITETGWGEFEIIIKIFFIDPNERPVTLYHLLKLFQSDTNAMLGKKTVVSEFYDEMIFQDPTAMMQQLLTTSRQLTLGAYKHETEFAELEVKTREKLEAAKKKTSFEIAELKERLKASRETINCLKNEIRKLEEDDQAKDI
UniProt P53299, sequence (whole entry, looked up): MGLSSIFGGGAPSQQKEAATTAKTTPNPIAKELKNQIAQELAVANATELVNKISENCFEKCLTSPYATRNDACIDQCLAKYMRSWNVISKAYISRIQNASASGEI

The Kd of `RASVIKKT (IRF2 residues 331-338 (Homo sapiens))` is reported as 7440 nM and 6050 nM (IRF2BP2; ITC; peptide).
The Kd of `CVPMTYRAC (cyclic peptide; cyclic, NOTA-Bn conjugated)` is reported as 10400 nM (Lag3 (Mus musculus, UniProt Q61790); SPR; peptide).
With `orexin-B` the maximal ΔF/F0 was 774% and 978% and 855% and 786% and 825% and 987% and 672% (HCRTR2 del254-292/I293E/K294R/L160H/M161K/Q254E; sensor fluorescence, fluorescence imaging; HEK293T; 10 µM, together with: OXB 10 µM; relative to: baseline).
`ANGNAENEENGEQEADNEVD (PTMA 35-54, isoform 1; N-acetyl, C-terminal amide)` has a Kd of 13400 nM (KEAP1; ITC; peptide).
The Kd of `RGSVITSA (Zbtb16 residues 285-292 (Mus musculus))` is reported as 18900 nM and 19100 nM (IRF2BP2; ITC; peptide).
With `KRRQRSMTDFYHSKR (CDKN1A residues 141-155 T145R; C-terminal amide)` the Kd was 88.5 nM (PCNA; SPR; peptide).
The root length of `aspterric acid` is reported as 1.08 cm (Arabidopsis thaliana Col-0 seeds; 3.125 µg/mL, seed germination).
`SQSTLSPNASVFKPSRS (upa1 128-144 (Ustilago maydis, UniProt A0A0D1E015); sequence looked up)` has a Kd of 15000 nM (pab1 567-636 (Ustilago maydis, UniProt Q4P8R9); ITC; peptide).
For `RPDRETRASVIKKTSDITQ (IRF2 residues 325-343 (Homo sapiens))`, the Kd was 1590 nM and 1430 nM and 1670 nM and 2000 nM (IRF2BP2; ITC; peptide).
`EEEWAREIGAYLRRAADDLNAQYERRR (PUMA residues 130-156 M144A/Q140Y; N-acetyl, C-terminal amide)` has a Kd of 0.31 ± 0.11 nM (Mcl1 152-308; SPR; peptide).
`Polymyxin B` gave a survival of 0% (mouse; intraperitoneal, 30 mg/kg single dose, day 3).
For `glucagon`, the splanchnic extraction was 30.7 ± 2.7% (arteriovenous isotope dilution; human, type 1 diabetes; iv, dose not given, overnight fasted, baseline).
`KRGWTDDLCYGTGA (TIM23 91-103 (Saccharomyces cerevisiae))` has a Kd of 613000 nM (Tim13 (Saccharomyces cerevisiae, UniProt P53299); SPR; peptide).
With `SSASSEDYIIILPECFDTSRPLGDS (NBR1 725-749 (UniProt Q14596); FITC label)` the Kd was 5820 ± 660 nM (TAX1BP1 346-506 (Homo sapiens, UniProt Q86VP1); FP; peptide).
`KRRQKRITEYYHSKR (designed peptide; C-terminal amide)` has a Kd of 6.7 nM (PCNA; SPR; designed binder).
The phosphorus of `HVLVMSATRR` is reported as 8 mg/dL and 8.7 mg/dL and 6.9 mg/dL (peptide, C57BL/6J mice, male, serum; subcutaneous osmotic pump, 3 mg/kg/day peptide basis, 8 weeks).
With `QDASTKKLSECLKRIGDELDSNMEL (BAX BH3 peptide (Homo sapiens); N-acetyl, C-terminal amide)` the Kd was 120 nM (BCL2L1 fragment (Homo sapiens); ITC; peptide).
For `SHQKVTLLQLLLGHKNEEN (NRIP1 peptide; N-terminal 5-FAM)`, the Kd was 272 nM (PPARG 202-477 (Homo sapiens, UniProt P37231-2); FP; peptide).
For `Histone H3.1 fragment (Homo sapiens) (sequence not shown)`, the Kd was 11800 ± 1400 nM (WDR5 fragment N130A (Homo sapiens); ITC).
With `HIKTHLDEETGEKTSITLDV (PALB2 83-102; N-acetyl, C-terminal amide)` the Kd was 130 nM (KEAP1; ITC; peptide).
`FSIVGTTYPINC (GABRA3 peptide 368-379 N369S)` gave a Kd of 7920 nM (Gphn (Rattus norvegicus, UniProt Q03555); competition titration, magnetic tweezers; peptide).
`amyloid β-peptide (1–28)` has a remaining substrate of 61.1 ± 4.4% (substrate, LC-MS; phosphate buffer; 10 µM, 4 h, pH 7.4, 25 °C, together with: imprinted nanoparticle 1 equiv).
The Kd of `ATGGVKKPHRY (Histone H3.1 32-42 (Homo sapiens, UniProt P68431); sequence looked up)` is reported as 950000 ± 25000 nM (YEATS4 19-159 (Homo sapiens, UniProt O95619); ITC; peptide; together with: histone H3 peptide).
The Kd of `EEEWAREIGAQLRRAGDDLNAQYERRR (PUMA residues 130-156 M144A/A145G; N-acetyl, C-terminal amide)` is reported as 0.24 ± 0.06 nM (Mcl1 152-308; SPR; peptide).
`DLDSDDEY (TELO2 488-494 (Homo sapiens); pS491)` gave a Kd of 58100 nM (PIH1D1 51-180 K166A (Homo sapiens, UniProt Q9NWS0); ITC; peptide).
`GLFSDEEDSEDLFSSQS (WASHC2A 536-552 (Homo sapiens))` gave a Kd of 23600 ± 2190 nM (SNX27 (Homo sapiens, UniProt Q96L92-3); ITC; peptide).
For `FAQLQLDPETGEFLPIQPAQ (NFE2L2 71-90 E78P; N-acetyl, C-terminal amide)`, the Kd was 6 nM (KEAP1; ITC; peptide).
For `KRRQTTITSHFHSKR (CDKN1A/DNMT1 chimeric PIP-box peptide; C-terminal amide)`, the Kd was 106 nM (PCNA; SPR; peptide).
With `PRPRPRPRPRPRPRPRPRPRPRPRPRPRPRPRPRPRPRPRPRPRPRPRPRPRPRPRPRPR (poly-PR 30 repeats)` the Kd was 0.69 nM (G3BP1 143-226 (Homo sapiens, UniProt Q13283); BLI; peptide).
The Kd of `SDLACRLLGQSMDESGLPQLTSYDCEVNAPIQGSGSGSGSRNLLQGEELLRALDQVN (HIF1A 776-826 807-811 replaced by (GS)3 (Homo sapiens, UniProt Q16665); sequence looked up)` is reported as 130 nM (Crebbp; fluorescence polarisation).
With `EEQWAREIGAQLRRMADDLNAQYER (BBC3 BH3 peptide 68-92 (Homo sapiens); N-acetyl, C-terminal amide)` the Kd was 33 ± 7 nM (BCL2L1 BCL-xL ΔC H to A (Homo sapiens); ITC; peptide).
`GRGRGRGRGRGRGRGRGRGRGRGRGRGRGRGRGRGRGRGRGRGRGRGRGRGRGRGRGRGR (poly-GR 30 repeats)` has a Kd of 5.97 ± 0.04 nM (G3BP1 (Homo sapiens, UniProt Q13283); BLI; peptide).
`TSLFEEDEEDDLFAIAK (WASHC2A 662-678 (Homo sapiens))` has a Kd of 42500 ± 2970 nM (SNX27 fragment (Homo sapiens); ITC; peptide).
`heparin sodium` — result for “subjects with adverse event”: 0% (item: Hypokalemia; human healthy Chinese adults; intravenous infusion, 8 IU/kg/h, 5 days).
For `GCAPMGWRQAMRCKQDSDCLAGCVCGPNGFCG (C3.P1 peptide)`, the Kd was 727 nM (C3 mature (UniProt P01024); SPR; peptide).
The retention time of `DPDPE` is reported as 7.07 min (RP-HPLC; HALO RP-amide column; 25 µM, formic acid/acetonitrile, 25 min gradient).
With `VQDTRL (CFTR residues 1475-1480; N-terminal FITC label)` the Kd was 46.3 ± 1.2 nM (NHERF2 142-254 (Homo sapiens, UniProt Q15599-1); fluorescence polarisation; peptide).
For `YIKTPLGTFPNRHGC (engineered peptide)`, the Kd was 90 ± 3 nM (VPS29/VPS35 full length heterodimer (Homo sapiens); ITC; peptide).
The Kd of `RVYPVSVPYSSAQSTSKTSVTLSLVMPSQ (Tab1 residues 384-412 (Mus musculus))` is reported as 2900 nM (Mapk14 (Mus musculus, UniProt P47811); ITC; peptide).
`hexaarginine` has a Kd of 28400 ± 3000 nM (PorA peptide pore; peptide binding, planar bilayer single-channel recording; pH 7.4, +25 mV, trans side, 150 mM KCl).
With `SDLACRLLGQSMDESGLPQLTSYDCEVNAPIQGSGSGSRNLLQGEELLRALDQVN (HIF1A 776-826 807-811 replaced by (GS)2 (Homo sapiens, UniProt Q16665); sequence looked up)` the Kd was 120 nM (Crebbp; fluorescence polarisation).
For `SIFDDDMDDIFSSG (WASHC2A 1289-1302 (Homo sapiens))`, the Kd was 25600 ± 350 nM (SNX27 fragment (Homo sapiens); ITC; peptide).
For `nonaarginine`, the Kd was 1020 ± 100 nM (PorA peptide pore; peptide binding, planar bilayer single-channel recording; pH 7.4, +10 mV, trans side, 150 mM KCl).
With `YLPTITGVGHLWHPLC (engineered peptide)` the Kd was 852 ± 14 nM (VPS35/VPS26A/VPS29 retromer complex (Homo sapiens); ITC; peptide).
The ΔF/F0 of `Neuromedin B` is reported as 0.299 and -0.774 and -1.92 and 0.217 and -1.45 (HCRTR2 del254-292/I293E/K294R/L160H/M161K/Q254E; sensor fluorescence, fluorescence imaging; HEK293T; concentration not given, unit not given; relative to: baseline).
For `YWISNSWTTYRYVSTC (engineered peptide)`, the Kd was 300 ± 7 nM (VPS26A/VPS35 VPS35  subcomplex (Homo sapiens); ITC; peptide).
The Kd of `NPFPLLEDEDDLFTDQK (WASHC2A 1197-1213 (Homo sapiens))` is reported as 70550 ± 640 nM (SNX27 (Homo sapiens, UniProt Q96L92-3); ITC; peptide).
`insulin human`: “mRNA fold change” 0.825 (item: NDN; mouse, uninfected, brain; ip, dose not given, together with: insulin; relative to: PBS-treated).
The Kd of `NLFDDNIDIFADLT (WASHC2A 1261-1274 (Homo sapiens))` is reported as 38800 ± 280 nM (SNX27 K501D (Homo sapiens); ITC; peptide).
The Kd of `SLEEPHSPETGEKVVAGEVN (AMER1 280-299; N-acetyl, C-terminal amide)` is reported as 270 nM (KEAP1; ITC; peptide).

Excerpt of the above:
`TSLFEEDEEDDLFAIAK (WASHC2A 662-678 (Homo sapiens))` has a Kd of 42500 ± 2970 nM (SNX27 fragment (Homo sapiens); ITC; peptide).
`EEEWAREIGAYLRRAADDLNAQYERRR (PUMA residues 130-156 M144A/Q140Y; N-acetyl, C-terminal amide)` has a Kd of 0.31 ± 0.11 nM (Mcl1 152-308; SPR; peptide).
`KRRQKRITEYYHSKR (designed peptide; C-terminal amide)` has a Kd of 6.7 nM (PCNA; SPR; designed binder).
`Polymyxin B` gave a survival of 0% (mouse; intraperitoneal, 30 mg/kg single dose, day 3).
For `GCAPMGWRQAMRCKQDSDCLAGCVCGPNGFCG (C3.P1 peptide)`, the Kd was 727 nM (C3 mature (UniProt P01024); SPR; peptide).
The Kd of `SDLACRLLGQSMDESGLPQLTSYDCEVNAPIQGSGSGSGSRNLLQGEELLRALDQVN (HIF1A 776-826 807-811 replaced by (GS)3 (Homo sapiens, UniProt Q16665); sequence looked up)` is reported as 130 nM (Crebbp; fluorescence polarisation).
